Published values gathered from unrelated publications.
Each numbered part is a random draw from the data of one study; scales do not carry over between parts.

Set 1
Target: Histone acetyltransferase KAT6A, winged helix 1, GST fusion (KAT6A, Homo sapiens, UniProt Q92794, residues 1-85)
Technique: protein binding microarray
Molecule type: double-stranded DNA, one strand shown
Matrix: in vitro
Concentration: not given
Setting: 8-mer, flanks averaged, mean of 2 arrays, mostly near background
Relative to: not given
Direction: higher = stronger binding
Residues (chain): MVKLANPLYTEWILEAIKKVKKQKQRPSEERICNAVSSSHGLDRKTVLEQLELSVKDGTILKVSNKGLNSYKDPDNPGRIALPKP
Sequence	E-score
GGATAGCC	0.0627
CATTCTAC	-0.147
CAAGTCAG	-0.223
CAAGACGA	-0.0831
AGCAACCG	0.021
CATACGAA	-0.0305
CAAGGAGA	-0.234
CCAAAGAC	-0.143
ATAAGCAT	-0.165
CAGATGAG	-0.28
CCTTTTCA	-0.0976
CGGCCAGA	0.0816
CGACGGTC	0.337
CGTGTGAG	0.00521
ACGCATTG	0.189
ACATCGTA	0.0409
ACCCGGAA	0.17
ACAGAAAC	-0.2
CCCTTCTC	-0.0709
CTCATATA	-0.102
GCACCAGC	-0.0104
TAACGACA	-0.0608
CAGCTCAG	-0.117

Set 2
Target: Interferon regulatory factor 3, full length, phosphomimetic (IRF3, Homo sapiens, UniProt Q14653, residues 1-427, S386D/S396D/S398D/S402D/T404D/S405D)
Chain of UniProt Q14653 (whole entry, unmodified, looked up): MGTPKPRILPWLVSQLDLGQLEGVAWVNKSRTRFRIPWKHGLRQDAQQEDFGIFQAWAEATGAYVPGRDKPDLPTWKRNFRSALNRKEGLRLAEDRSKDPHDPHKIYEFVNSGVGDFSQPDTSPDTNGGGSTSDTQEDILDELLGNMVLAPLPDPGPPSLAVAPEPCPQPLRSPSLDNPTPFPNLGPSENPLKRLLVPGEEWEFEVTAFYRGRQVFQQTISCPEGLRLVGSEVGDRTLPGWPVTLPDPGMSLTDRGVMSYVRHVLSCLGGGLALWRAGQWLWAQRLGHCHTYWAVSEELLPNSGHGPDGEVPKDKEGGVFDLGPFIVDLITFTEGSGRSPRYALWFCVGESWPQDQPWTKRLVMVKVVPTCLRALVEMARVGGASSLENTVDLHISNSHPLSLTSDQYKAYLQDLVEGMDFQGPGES
Technique: protein-binding microarray
Molecule type: double-stranded DNA, one strand shown
Matrix: in vitro
Concentration: 2540 nM top
Setting: 60-bp whole probe
With: salmon DNA 0.4 mg/ml
Relative to: random background probes
Direction: higher = stronger binding
All sequences stand within: GCCTAGCAC … GTCTTGATTCGCTTGACGCTGCTG
Sequence	fitted relative affinity
GACGGTTTCGGACCGGGGACGTGCTAG	3.43 z-score
TTCACTCTCTGCTTGTATCTGTGCTAG	0.45 z-score
TTTGAACTGAGTTTCGATTAGTGCTAG	2.38 z-score
TTAGATTTCAGTTCGGATTAGTGCTAG	1.71 z-score
TTAGCACTGAGTTTCGATTAGTGCTAG	2.17 z-score
TCATTTATACCTTAGGTACTGTGCTAG	1.22 z-score
GACGATATCGGTTTCGAGACGTGCTAG	3.97 z-score
CAGCGCGCAGCTGCCAGAACGTGCTAG	-0.634 z-score
TTGGCTTTCCTTTATGTCCTGTGCTAG	3.3 z-score
TCAACTTTCTACGTCTGACTGTGCTAG	0.779 z-score
TTAGGTATCGGTCTCCGTTAGTGCTAG	4.26 z-score
TTAGATCTCAGACTGGTTTAGTGCTAG	0.00362 z-score
TTGGGTATCCTTCTCCTTTAGTGCTAG	5.86 z-score
TCATTTTTCTATATGCAACTGTGCTAG	2.03 z-score
GACGATATCAGTATCAAGACGTGCTAG	1.16 z-score
TCATTTCTGAATGTCTTACTGTGCTAG	2.39 z-score
CTTTTTTTGGTAATAGTGAAGTGCTAG	2.77 z-score
CCGTAGCTTCCTTTCGCCGCGTGCTAG	1.01 z-score
TCAGTTTGCCTCCTTCAGACTGTGCTA	0.992 z-score
TGCATTTTTTTTTTCTACTTGTGCTAG	0.826 z-score
GACGGTATCGTTTTCGGGACGTGCTAG	5.06 z-score

Set 3
Target: Sox-I, HMG box (Salpingoeca helianthica)
Technique: Spec-seq
Molecule type: double-stranded DNA, one strand shown
Matrix: in vitro
Concentration: not given
Setting: whole probe, mean of replicates
Relative to: not given
Direction: lower = stronger binding
All sequences stand within: GAGTCGTCTCGTCAGCAC … CCGTAGAGCACTCAGGTC
Residues (chain): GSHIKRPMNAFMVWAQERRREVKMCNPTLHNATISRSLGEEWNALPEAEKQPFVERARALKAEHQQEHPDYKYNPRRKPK
Sequence	relative binding energy
CATCACC	0.877 ln ratio
CATCTCA	0.72 ln ratio
CATGGCT	0.966 ln ratio
CATGGTC	0.703 ln ratio
GCTTGTT	-0.386 ln ratio
GCCAGTT	-0.012 ln ratio
CATCCTG	0.781 ln ratio
CATCCGA	0.956 ln ratio
TTCGGTT	0.838 ln ratio
CATTGCG	0.879 ln ratio
AAGTGTT	-0.27 ln ratio
GTTGGTT	0.843 ln ratio
TAGCGTT	0.987 ln ratio
CATTAAA	0.402 ln ratio
GAACGTT	0.706 ln ratio
CATGGCA	0.947 ln ratio
CATTCCC	0.986 ln ratio
GTGGGTT	0.938 ln ratio
CATTCTC	0.164 ln ratio
CATACAT	0.142 ln ratio

Set 4
Target: RNA binding protein fox-1 homolog 2, RRM domain, GST-SBP tag (RBFOX2, Homo sapiens, UniProt O43251-10, residues 100-194)
Technique: RNA Bind-n-Seq
Molecule type: RNA
Matrix: in vitro
Concentration: 365 nM
Setting: natural RNA segment, single round, ends assumed
Relative to: no-protein control
Direction: higher = stronger binding
All sequences stand within: GGGAGUUCUACAGUCCGACGAUC … UGGAAUUCUCGGGUGCCAA
Target sequence (chain): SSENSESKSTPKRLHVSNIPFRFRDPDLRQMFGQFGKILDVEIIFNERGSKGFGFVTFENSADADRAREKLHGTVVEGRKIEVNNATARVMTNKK
Sequence	RBNS enrichment (R)
GGCUGGGCCUGUCCUGCCGUCAUGGCCCCCUGCUUCCUGCUCCUUGGAGCUGGCUCCCGGACCUUGCCCACCAUCCAUGCAGUGGCUCCCAGGGCAGAGCCUCUCCUUGU	0.337
AACCCAUACCCAGCAUCCCUCCCCUGCCCUGGCCCUCGGCUGUGUAUUUAUAGAUGGAAAUAUACUUUAUAUUUUGUAUCAUUGUGCCUAUAGCCUCUGCCACCUUGUAU	0.621
CACUGGGUUCUGCAGCACUGGAGUUUCCAUGACCGCUCCCACAUCACCCCACCCUCGACUCUGGCACCAGUAUGGUUCUAUGCAUGUUGCAGCUCUCUGGGCUGUGACUC	0.604
CAUCAUCCCUGUAAGCAGAGAGAACCCUAGUCACUAAAGGUGGGAGCCCUUUACCUCUCAUGUUCCACUUUGAAAAGUUUGUAUUGACAUUUGGUUCAUAUCUUGUGUAU	0.548
GUAAACAGACAAGGAAGAUAUCCUCUGUACCAGUGAUGUCCUGCCCCCAGUGCAUUUCUUCACAGUGAAGAAAAGGAAAAAUUUCAAAACAAUACUUUUUGUAUUAUCUA	0.331
GGACGCCAAAAUGGCAUAACUGAGAUAAGGUGAAUAAGUGACAAAUAAAGCCAGUUUUUUACAAGGUACUUGAUCAUGUUCUCUUGAUUUUAAAUUAGAUUUUAUUCCCA	0.381
UGGCUCCUAGCUGCCCAUAGGCUCCUAGUGCAUGAGGAAUUCUGAGGAGAGGACAAGUGGGGACAUUUCCUCGGCAUGGCCUCCAAGGCCUGCAUGGCUACACACCUGGC	11.9
CAUCACCUGGCACGCAGGCGCCUUACAUUCUACGGUAGAACGUGGGGUACUGUGUGUGCACAUAGACACACUUACGUGGAAUUACAGUUGUGGGUUUAUCCAAGAUGAGG	0.253
GGCCCUGCCAGUGGGGAAGGAGGCCAAGCAGUGCCUGCCUAUGAAAUUUCAACUUUUCCUUUCAUACGUCUUUAUUACCCAAGUCUUCUCCCGUCCAUUCCAGUCAAAUC	0.364
CAUCCCAAAGGACAGCCGCCUGGAGAUGACUUGAGGCCUUACUUAAACCCAGCUCCCUUCUUCCCUAGCCUGGUGCUUCUCCUCUCCUAGCCCCUGUCAUGGUGUCCAGA	0.593
UGAAAUCACAGCCCUGCCAUUGGAGUGGGCGUUUGGAAUCCCUAGUGCUCCUGCUUUCAGUCCCCUCUGCCUUCCAGUGAUCUCUUUCCUACAAGCUGCUUCGAGGUCCA	0.425
GCCACAUGCUUGCUGAAGAGACUUGUUUUCUUCUUCUAAGACAGUGGUUUUGUUUUUUGGGUUUUUUAAAAAAAAAAAAAAAACACACACAAAAAACACUUUUUCUAUUG	0.408

Set 5
Target: RING finger protein unkempt homolog, zinc fingers 1-6, GST-SBP tag (UNK, Homo sapiens, UniProt Q9C0B0, residues 30-357)
Chain of UniProt Q9C0B0 (30-357, looked up): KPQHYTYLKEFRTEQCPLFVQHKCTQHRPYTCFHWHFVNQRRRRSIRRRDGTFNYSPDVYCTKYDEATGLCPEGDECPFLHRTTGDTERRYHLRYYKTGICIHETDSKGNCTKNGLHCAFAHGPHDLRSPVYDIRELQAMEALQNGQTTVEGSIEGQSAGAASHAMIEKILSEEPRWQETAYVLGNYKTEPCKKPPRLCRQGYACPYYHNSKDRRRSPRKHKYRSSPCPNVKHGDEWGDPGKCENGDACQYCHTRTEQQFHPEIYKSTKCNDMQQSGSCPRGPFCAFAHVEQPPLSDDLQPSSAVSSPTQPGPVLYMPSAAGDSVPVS
Technique: RNA Bind-n-Seq
Molecule type: RNA
Matrix: in vitro
Concentration: not given
Setting: RNA with constant flanks, human and mouse sites, ends assumed
Relative to: input RNA pool
Direction: higher = stronger binding
All sequences stand within: GGGAGUUCUACAGUCCGACGAUC … CAACAGAGGAUUGAGCAUCA
Sequence	bound/input enrichment [ratio]
GAACUAUGACAUCGGAGCGGCUCUGGACACCAUCCAGUAUUCAAAGCAUCCCCCGCCGUUGUGACCACUUUUGCCCACCUCUUCUGCGUGCCCCUCUUCUGUCUCAUAGUUGUGUUAAGC	0.5
AAAGAGGAUAUUGGUAUUGGUUCUUAUUCUGUUUGCAAGCGAUGCAUACACUCAGCUUCCAAUGUGGAAUUUGCAGUCAAGAUCAUUGAUAAAAAUAAGAGAGACCCCUCAGAAGAAAUU	0.137
UUUCCCGGAAACAGUACCCAGUACAACAUCCUAGAAGGACUGGAGAAACUCAAACAUCUAGAUUUCCUAAAGCAGCCACUGGCCACCCAAAAAGAUCUCACUGGCCAGGUGCCCACCCCC	1.88
GUGCAGCUAAGGAAACAGCAUGCAGUCAUGAUUGUUAGAUGAGAGACACUAAAGUACAGUUAGCUGCCAACAAGUAUUAAGGAUUACUCUGCAAAACUUCCCAGUUGCCAGCUGCCAGAG	0.527
AUUCUGUGGGCCACUCUCCCCAACGUUCUGACACUUCUGCAGUCUGAUCAGUGGCGAUGCUAGAUUAUAAUUUCAAACUGUGAAGAAUAAUGGUCUUGUCAUUUGCUCAAUGUGGGGUUA	0.278
UUGCCACCGUCCGCCAAAAAGUCAGGCCAGAAACCUGUGCUUUCAGAUGUUCACGCAGAGCUAGACAGAAUCACACGGAAACCUGCUUCUGUUUCUCCUACAACACCUACAUCUCCUACG	0.152
GAGUUUGCAGCAGGUCCUGCUCAAUCUGGAAUUUUGUCAGACCGUGAAGUGGUAAACCUCUUUCUUCAUUUUACCGUCAAUCCUAAACCCCGAGUAGAGUACAUUGAUCGGCCACGAUGC	0.22
UGUUGGUUAUUUUCUAAAUAUUUUUACAAGAAAAUUUAGUCUUAAAUUUGGAAGAAGAAACCCCCCCCUUGAAACUAUCAAUACUGUAAAUGUGACACAUGUUGCCCUGGUAAGGAUAUA	0.945
AUGGACUUACAGCUUCAUAUUUAUCAGUUGAAAACACUAAUUAGGAUGGUAAAGAAAACCUACAGAGAUUUCCGAUUGCAAGGGGUCCUGGACUCCACCUUAAACAGCAAGACCUAUGAA	0.6
GGUUUCAAUGAAACUGAUGAUUUAAAGAGAGCCGAAAGUAUGCUUCAACAAGCAGAUAAAUUAGGUUGCAGACAGUUCGUUACUCCAGCUGAUGUUGUCAGCGGAAACCCCAAACUGAAC	0.153
UAAAUAAGUGUUUAAAAUAUAUAUAUACACCAAGGUUCCACCCUAAGAAAAAGGCUGGACUAGUUUCAGUCCGAGCCCUUAAAUAAUCCUUCUGUUUUUUUUUACGUUGAAUCUUUCUGC	1.18

Excerpt of the above (set 3):
Sequence	relative binding energy
CATCCGA	0.956 ln ratio
TAGCGTT	0.987 ln ratio
GTGGGTT	0.938 ln ratio
CATTAAA	0.402 ln ratio
CATGGTC	0.703 ln ratio
CATGGCT	0.966 ln ratio
CATACAT	0.142 ln ratio
GTTGGTT	0.843 ln ratio
CATCACC	0.877 ln ratio
GAACGTT	0.706 ln ratio
CATCCTG	0.781 ln ratio
GCCAGTT	-0.012 ln ratio
CATTGCG	0.879 ln ratio
